Measured values pooled from the literature.
Parts stem from different laboratories: compare values within a part only.

Sample 1 — method: protein-binding microarray; form: double-stranded DNA, one strand shown; matrix: in vitro; concentration: 2540 nM top; notes: 60-bp whole probe; added: salmon DNA 0.4 mg/ml; baseline: random background probes; direction: higher = stronger binding; endpoint: fitted relative affinity; constant ends, left off below: GCCTAGCAC … GTCTTGATTCGCTTGACGCTGCTG
Target: Interferon regulatory factor 3, full length, phosphomimetic (IRF3, Homo sapiens, UniProt Q14653, residues 1-427, S386D/S396D/S398D/S402D/T404D/S405D)
UniProt Q14653, sequence (whole entry, unmodified, looked up): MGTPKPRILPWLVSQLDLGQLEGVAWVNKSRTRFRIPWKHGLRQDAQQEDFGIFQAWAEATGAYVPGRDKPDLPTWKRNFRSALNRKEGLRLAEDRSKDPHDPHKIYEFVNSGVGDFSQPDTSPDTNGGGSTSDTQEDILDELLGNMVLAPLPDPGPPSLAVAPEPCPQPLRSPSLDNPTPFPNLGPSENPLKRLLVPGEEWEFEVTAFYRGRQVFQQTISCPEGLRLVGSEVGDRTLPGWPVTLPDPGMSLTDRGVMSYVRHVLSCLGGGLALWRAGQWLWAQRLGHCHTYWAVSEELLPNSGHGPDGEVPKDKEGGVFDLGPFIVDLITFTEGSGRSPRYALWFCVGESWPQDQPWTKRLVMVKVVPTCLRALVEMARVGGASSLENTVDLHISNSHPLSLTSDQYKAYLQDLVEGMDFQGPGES
TTAGGTTTCGTTTCCCTTTAGTGCTAG: 9.64 z-score
GACGGTATCCTTCTTCTGACGTGCTAG: 6.71 z-score
TTACGTTTCGGGTTTCGGTTAGTGCTA: 5.47 z-score
GATGGACTGGGACTGGGGACGTGCTAG: -1.13 z-score
CTCGTGGTCCTGCCCTGCCTGTGCTAG: -0.871 z-score
AACGATCTCAGTCTCGAGACGTGCTAG: 0.685 z-score
TTAGCTTTCGACTTTCGGTTAGTGCTA: 2.15 z-score
TCAGTTATTAAATTTTCAACTGTGCTA: 0.399 z-score
TCAAATATGAGACTGGGACTGTGCTAG: -0.304 z-score
TCAAGGTTCAAGTTTACCACTGTGCTA: -0.367 z-score
TTAGGACTGTACTATCGGTTAGTGCTA: 0.00424 z-score
TTAGGTTTCCTTTCCCTTTGGTGCTAG: 10.6 z-score
GACGGACTGGGGTCTGGGGACGTGCTA: -0.95 z-score
TTAGGACTGCTTATCCTCTAGTGCTAG: -0.469 z-score
GACGGTTTCGCACTGGGGACGTGCTAG: 3.66 z-score
TTAGGTATGCTTCTCCTTTAGTGCTAG: 0.373 z-score
TTTTTTTTCATCATTGCCTGGTGCTAG: 1.66 z-score
TTAGGACTGAGTTTCGATTAGTGCTAG: 2.32 z-score
GACGGTTTCCTTTCTCTGACGTGCTAG: 12 z-score

Sample 2 — method: RNA Bind-n-Seq; form: RNA; matrix: in vitro; concentration: not given; baseline: input RNA pool; direction: higher = stronger binding; endpoint: bound/input enrichment
Target: RING finger protein unkempt homolog, zinc fingers 1-6, GST-SBP tag (UNK, Homo sapiens, UniProt Q9C0B0, residues 30-357)
UniProt Q9C0B0, sequence (30-357, looked up): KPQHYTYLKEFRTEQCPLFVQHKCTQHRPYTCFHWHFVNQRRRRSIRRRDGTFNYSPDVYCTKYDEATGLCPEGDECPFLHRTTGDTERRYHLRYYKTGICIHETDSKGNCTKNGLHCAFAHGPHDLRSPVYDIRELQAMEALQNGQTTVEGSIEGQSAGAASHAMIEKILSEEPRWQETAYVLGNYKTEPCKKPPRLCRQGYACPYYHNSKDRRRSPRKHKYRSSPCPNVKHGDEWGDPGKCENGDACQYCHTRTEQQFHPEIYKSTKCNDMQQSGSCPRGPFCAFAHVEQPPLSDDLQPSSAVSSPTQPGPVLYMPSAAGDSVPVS
Notes: RNA with constant flanks, human and mouse sites, ends assumed
Constant ends, left off below: GGGAGUUCUACAGUCCGACGAUC … CAACAGAGGAUUGAGCAUCA
GGAAAUCUACAAAGGACAUCCAGCCAGCGAAGCACCCUUACAUACCAAAGAAAUAACUAUGCCCUGAACACAGCAGCUACCUAUGCGGAGCCCUACAGGCCAGUUCAGUACCGAGUCCAA: 0.281 ratio
CCGCUUAAGGCUUCUUGUAGUACAAACAUCAAUAAUCAGGAAAGUCAGGAACUUUCUGAAUCCCUGAAAGAUAGUGCCACCAGCAAAACUUUUGAAAAGAAUGUUGUACGGCAGAAUAAA: 0.185 ratio
UACAUUUUUUUCAGCCUUUAUCUAGAUGAGGUAAAGGGAAUCAUUCUUAUGGUGCUCUUGGAGAGUUUCAGGCCUGUGCAUGUGUGUACAGCAGGAGGUAAUAUGCUAUAAUGUCUGCUG: 0.273 ratio
AAGAGUCAAGGUGGGGAGCCAACAUACAACGUUGCUGUUGGCAGGGCCGGGAGAGUCUUGGUCUUUGUAAUGGGAAAAGAAGGGGUCCAUGGAGGCGGAUUGAAUAAGAAGGCAUACUCA: 0.455 ratio
UGGAAGCGACUGUGUCAGUACCACUUUGCUGAGCAGCAGUUUUGUAGACAUUUGAUCCUUUCAGAAAAAGGUCAUAUCGAGUGGAAGCUGAUGUAUUUCACGCUUCAGAAGUAUUACCCG: 0.122 ratio
UCCCAGCACUUUGAUAAAAAGUGUGGACUGGUUGCUUGUAUUUUCCUUAUUCUUUUUAAUUAGUUUUAUUAUGUAUGCUACCAUUCGAACUGAGAGUAUUCGGUGGCUAAUUCCAGGACA: 28.8 ratio
AGCUCUAGGCUUUUCAGAUGUGGAUCAUACCUAUGCUCAAAGAACUCAGCUCUUUGACACCUUAGUAAAUUUCUUUCCUGACAGCAUGACUCCUCCUAAAGGCAACCUGGUAGACCUGAU: 5.79 ratio
AAACUGUUCUACAGUGCAAAGAACACCAGCGAGCUCCUGUUUAAGAAAGAUAUCCUCGACUUAGUACAUGAAUUCCCUGAGAAGAUUUCUUGCAGUUUUCAUGUUACAAAACAGACAGCA: 0.13 ratio

Sample 3 — method: protein binding microarray; form: double-stranded DNA, one strand shown; matrix: in vitro; concentration: not given; baseline: not given; direction: higher = stronger binding; endpoint: E-score
Target: Histone acetyltransferase KAT6A, winged helix 2, GST fusion (KAT6A, Homo sapiens, UniProt Q92794, residues 85-181)
Notes: 8-mer, flanks averaged, mean of 2 arrays, mostly near background
Target sequence (chain): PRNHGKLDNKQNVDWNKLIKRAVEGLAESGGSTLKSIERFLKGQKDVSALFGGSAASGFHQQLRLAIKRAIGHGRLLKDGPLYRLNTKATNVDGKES
GCGTGATA: 0.0808
ACTGCTAA: 0.0628
ACGCGAAG: -0.0541
CTCGTTAC: -0.0343
AGCTGAAC: -0.0395
CAGCAAAG: 0.121
ATCTATCG: -0.065
ATTTCTGG: -0.17
ATGTAAAC: -0.105
CAAGTCCA: -0.0892
GTGATCCA: -0.103
ATACTAGC: 0.0627
CCGAGACC: 0.129
AAGAAATA: 0.163
AATTCCTA: -0.065
ATTCGCGA: 0.0184
CGAAGGCA: 0.128
CCAAATCG: -0.0395
CAGACCAG: 0.0343
AAGGAACT: -0.123
CGGGTGAA: 0.114
GGCTCCAA: 0.00983
CGACATGA: 0.0279
TAATAAAA: 0.237
AAGAAGAC: -0.127

Sample 4 — method: competition protein-binding microarray; form: double-stranded DNA, one strand shown; matrix: in vitro; concentration: 2 µM; added: Cbf1 competitor, 0.05 µM; direction: higher = stronger binding; endpoint: fluorescence intensity; constant ends, left off below: … GTCTTGATTCGCTTGACGCTGCTG
Target: Phosphate system positive regulatory protein PHO4, full length, GST-tagged (PHO4, Saccharomyces cerevisiae, UniProt P07270, residues 1-312)
Notes: whole 60-bp probe, lowest competitor level
Construct (chain): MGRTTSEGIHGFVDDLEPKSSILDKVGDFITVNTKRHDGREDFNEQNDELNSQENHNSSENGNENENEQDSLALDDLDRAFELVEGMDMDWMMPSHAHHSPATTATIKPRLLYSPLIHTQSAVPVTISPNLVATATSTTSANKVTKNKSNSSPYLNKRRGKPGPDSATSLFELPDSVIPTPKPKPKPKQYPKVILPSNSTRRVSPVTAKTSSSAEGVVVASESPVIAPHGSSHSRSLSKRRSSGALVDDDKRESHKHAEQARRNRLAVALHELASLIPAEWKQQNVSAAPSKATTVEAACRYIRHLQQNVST
CTAACGAAGGTTTTTCACGTGCTGTACAAGCCAAGT: 13800 a.u.
TGGTGCACTATCCATTTCGTGCTTTTTGGTTATTGT: 5640 a.u.
TTTACAAGCCAGAAAGCCGTGATGGCTTGATTATCA: 3240 a.u.
GTAGAGCAGGATGATCCCGTGCCAGAACTGGATATC: 8190 a.u.
CTTTCCCGATCTTGGCTCGTGGGTGTAGCACATTTG: 12500 a.u.
AAATTACTAAGTTGTCACAGTACTTACCCCGTATGA: 3350 a.u.
CTTCTGTAAATTTGGACTGTGGGTGGACGCGCCCCG: 4580 a.u.
TTGTTATCGTTAAACCACATGATGAAGGTTCCAAGT: 7200 a.u.
AAAAGAATTATTTGTCATGTGATTGCCATCCTACTT: 6160 a.u.
AAATTACTAAGTTGGGGAGTGGGTGACGCCGTATGA: 4680 a.u.
CATATGAATTTGCTCTTCTAGTAACTTTGTACACAG: 3470 a.u.
CTTCTGTAAATTTGGTGGGTGGGTGGACGCGCCCCG: 4990 a.u.
TGCGTTTTGGTCTACGATGTGACAGTTGCCAGTTCC: 3560 a.u.
CGGGGTTAAGTTTGCTGGGTGGGTGGCTTGCAGCAG: 4500 a.u.
CAGAAGGACTATTCACACGTGCCAGGCAAATTTTTT: 16900 a.u.
TGCGCAACAACTTTTCACGTGTGGTTATGTCTAGAA: 14000 a.u.
CTAACGAAGGTTTGGCATGTGGGTGACAAGCCAAGT: 11900 a.u.
CTTTCCCGATCTTGGGTGGTGGGTGTAGCACATTTG: 5710 a.u.
ATAATAAAGAATGGTGATGTGATGGTATTCAACTTG: 5000 a.u.
